{"data": "Experimental data pooled from the literature", "note": "Each numbered part is a random draw from the data of one study; scales do not carry over between parts. Changes are numbered by the printed parent chain."}
{"data": "Block 1", "target": "CRIPT, C-terminal peptide", "technique": "DHFR complementation, deep sequencing", "matrix": "yeast", "notes": "single substitutions, model-inferred values", "relative to": "wild type", "reading": "higher = weaker binding", "starting sequence": "ERBIN, PDZ domain 1 (human); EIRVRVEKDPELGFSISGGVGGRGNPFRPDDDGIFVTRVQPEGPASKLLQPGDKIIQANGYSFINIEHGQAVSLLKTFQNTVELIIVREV; partner TKNYKQTSV"}
{"Substitution": "G69S", "binding free energy change": "0.0901 kcal/mol"}
{"Substitution": "S17P", "binding free energy change": "0.734 kcal/mol"}
{"Substitution": "N80V", "binding free energy change": "0.153 kcal/mol"}
{"Substitution": "A45R", "binding free energy change": "0.85 kcal/mol"}
{"Substitution": "P29A", "binding free energy change": "-0.0255 kcal/mol"}
{"Substitution": "Q79R", "binding free energy change": "0.0139 kcal/mol"}
{"Substitution": "F35R", "binding free energy change": "1.13 kcal/mol"}
{"Substitution": "I56A", "binding free energy change": "0.127 kcal/mol"}
{"Substitution": "K76H", "binding free energy change": "0.661 kcal/mol"}
{"Substitution": "G69F", "binding free energy change": "0.17 kcal/mol"}
{"Substitution": "I85K", "binding free energy change": "-0.0205 kcal/mol"}
{"Substitution": "E83M", "binding free energy change": "0.182 kcal/mol"}
{"Substitution": "T77W", "binding free energy change": "0.111 kcal/mol"}
{"Substitution": "E1D", "binding free energy change": "0.263 kcal/mol"}
{"Substitution": "Q40H", "binding free energy change": "0.294 kcal/mol"}
{"Substitution": "P44L", "binding free energy change": "0.846 kcal/mol"}
{"Substitution": "V39A", "binding free energy change": "0.791 kcal/mol"}
{"Substitution": "G18R", "binding free energy change": "1.31 kcal/mol"}
{"Substitution": "Q50H", "binding free energy change": "0.0863 kcal/mol"}
{"Substitution": "F14S", "binding free energy change": "0.692 kcal/mol"}
{"Substitution": "Q40T", "binding free energy change": "0.265 kcal/mol"}
{"Substitution": "A71K", "binding free energy change": "1.5 kcal/mol"}
{"Substitution": "I34K", "binding free energy change": "0.0956 kcal/mol"}
{"Substitution": "G33M", "binding free energy change": "1.15 kcal/mol"}
{"data": "Block 2", "target": "Histone acetyltransferase KAT6A, winged helix 1, GST fusion (KAT6A, Homo sapiens, UniProt Q92794, residues 1-85)", "technique": "protein binding microarray", "molecule type": "double-stranded DNA, one strand shown", "matrix": "in vitro", "concentration": "not given", "notes": "8-mer, flanks averaged, mean of 2 arrays, mostly near background", "relative to": "not given", "reading": "higher = stronger binding", "Residues (chain)": "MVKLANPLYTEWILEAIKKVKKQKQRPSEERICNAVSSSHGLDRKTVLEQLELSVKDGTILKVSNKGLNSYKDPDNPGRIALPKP"}
{"Oligonucleotide": "AGCCCTCA", "E-score": -0.125}
{"Oligonucleotide": "CAACCGGA", "E-score": 0.0612}
{"Oligonucleotide": "AATCCAAG", "E-score": -0.228}
{"Oligonucleotide": "CACACCAA", "E-score": 0.0377}
{"Oligonucleotide": "CTGTGAGC", "E-score": -0.0659}
{"Oligonucleotide": "ACATGCAG", "E-score": -0.0642}
{"Oligonucleotide": "AAGGCTCT", "E-score": -0.0542}
{"Oligonucleotide": "ACCCAACC", "E-score": -0.099}
{"Oligonucleotide": "ATTCATTA", "E-score": -0.0823}
{"Oligonucleotide": "AGAGAGGG", "E-score": -0.0774}
{"Oligonucleotide": "ATAGCACG", "E-score": 0.145}
{"Oligonucleotide": "CAAAGACC", "E-score": -0.0169}
{"Oligonucleotide": "CTAACTGC", "E-score": -0.0513}
{"Oligonucleotide": "CGTATAAC", "E-score": 0.167}
{"Oligonucleotide": "CTTGACGC", "E-score": 0.154}
{"Oligonucleotide": "CGTCGGTC", "E-score": 0.332}
{"Oligonucleotide": "CGCAAATA", "E-score": -0.0456}
{"Oligonucleotide": "CACAAGGA", "E-score": -0.188}
{"Oligonucleotide": "TGCCGGAA", "E-score": 0.151}
{"data": "Block 3", "target": "CCNB2, cyclin fold, Cln2 fusion (human)", "technique": "yeast growth competition, sequencing", "matrix": "yeast", "notes": "weak parent motif", "relative to": "not given", "reading": "higher = stronger binding", "starting sequence": "RB1 docking peptide (human); PKPLKKLRFDIEG; partner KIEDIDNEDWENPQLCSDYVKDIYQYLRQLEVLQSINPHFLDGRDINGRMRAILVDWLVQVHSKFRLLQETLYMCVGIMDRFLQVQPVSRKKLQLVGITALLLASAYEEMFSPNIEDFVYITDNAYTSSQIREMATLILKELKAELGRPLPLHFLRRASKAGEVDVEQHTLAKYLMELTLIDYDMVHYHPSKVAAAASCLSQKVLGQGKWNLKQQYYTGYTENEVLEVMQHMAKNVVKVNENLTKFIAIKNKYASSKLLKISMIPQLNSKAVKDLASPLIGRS"}
{"Substitution": "L4Y", "normalised enrichment score": 0.664}
{"Substitution": "I11G", "normalised enrichment score": 0.394}
{"Substitution": "K6Q", "normalised enrichment score": -0.095}
{"Substitution": "K5L", "normalised enrichment score": -0.277}
{"Substitution": "L7T", "normalised enrichment score": -0.055}
{"Substitution": "P1T", "normalised enrichment score": 0.308}
{"Substitution": "F9S", "normalised enrichment score": 0.2}
{"Substitution": "P1M", "normalised enrichment score": -0.164}
{"Substitution": "P3E", "normalised enrichment score": 0.403}
{"Substitution": "F9G", "normalised enrichment score": 0.116}
{"Substitution": "K2Q", "normalised enrichment score": 0.173}
{"Substitution": "L7E", "normalised enrichment score": -0.249}
{"Substitution": "K5I", "normalised enrichment score": 0.365}
{"Substitution": "K5H", "normalised enrichment score": 0.421}
{"Substitution": "G13L", "normalised enrichment score": 0.379}
{"Substitution": "D10A", "normalised enrichment score": 0.776}
{"Substitution": "I11H", "normalised enrichment score": 0.577}
{"Substitution": "K6L", "normalised enrichment score": 0.0683}
{"Substitution": "P3G", "normalised enrichment score": 0.617}
{"Substitution": "L7D", "normalised enrichment score": -0.537}
{"Substitution": "I11M", "normalised enrichment score": 0.256}
{"Substitution": "I11C", "normalised enrichment score": 0.456}
{"Substitution": "F9K", "normalised enrichment score": -0.00693}
{"Substitution": "K5P", "normalised enrichment score": 0.226}
{"Substitution": "E12L", "normalised enrichment score": 0.559}
{"data": "Block 4", "target": "Fragile X messenger ribonucleoprotein 1, C-terminal low-complexity region (Fmr1, Mus musculus, UniProt P35922)", "technique": "RNA Bind-n-Seq", "molecule type": "RNA", "matrix": "in vitro", "concentration": "200 nM", "notes": "whole 134-nt RNA, ends assumed", "with": "150 mM LiCl", "relative to": "input library", "reading": "higher = stronger binding", "library": "7-deaza-guanosine replaces G", "constant ends, left off below": "GGGAGUUCUACAGUCCGACGAUC … UGGAAUUCUCGGGUGUCAAGG"}
{"Oligonucleotide": "AGUCCUGUGCUACACAUCGUAUGUACCGAAUCGGGAAAAAGGGAAAAAAAGGGAGGGAAAGUAUUAUGUUACGCCGUUCGGAUCUGCACU", "log2 enrichment": -0.795}
{"Oligonucleotide": "UUUGACGCGGUGUGUUACGUGGGGGAGAGAAUAAAACUCCAGCGAGAUCCGGGCCGUGAACGAAAGCAGUGACGGAGGAGCUUGUACCAC", "log2 enrichment": 0.281}
{"Oligonucleotide": "GUCCUGUGCUACACAUCGUAUGUACCGAAUCAAAUUUUUAAAUUUUUUUAAAUUUAAAAAAGUAUUAUGUUACGCCGUUCGGAUCUGCAC", "log2 enrichment": -3.23}
{"Oligonucleotide": "AAGUCCUGUGCUACACAUCGUAUGUACCGAAUCGGGAGGGUUUGGGUUUUUUUGGGAAAGUAUUAUGUUACGCCGUUCGGAUCUGCACUU", "log2 enrichment": -1.47}
{"Oligonucleotide": "UAACUUUAGAGGAGGUUCUGAUGGAUAUGGCAGUGGACGUGGAUUUGGGGAUGGCUAUAAUGGGUAUGGAGGAGGACCUGGAGGUGGCAA", "log2 enrichment": -0.0415}
{"Oligonucleotide": "CACAGACAACACGCACCCACACAGACACAGAGGGAAGGGGUUGGGAUGGGGACAGGGUGCACAGCAGGGCGGGGUAGGACCCCAGCCCGU", "log2 enrichment": -0.403}
{"Oligonucleotide": "CUCAAGUCCUGUGCUACACAUCGUAUGUACCGAAUCGGGGAAGGAAGGGAAGGAAAGUAUUAUGUUACGCCGUUCGGAUCUGCACUUCCA", "log2 enrichment": -1.03}
{"Oligonucleotide": "UGGGAGGUGGAUUUUGUUUAUUUUUUUAGCUCAGUUCCAGGGGUGGGAAUUUUUUUUUAAUAUGUGUCAUGAAUAAAGUUGUUUUUGAAA", "log2 enrichment": 0.575}
{"note": "Repeated from above (block 2):"}
{"Oligonucleotide": "ACATGCAG", "E-score": -0.0642}
{"Oligonucleotide": "AAGGCTCT", "E-score": -0.0542}
{"Oligonucleotide": "ACCCAACC", "E-score": -0.099}
{"Oligonucleotide": "ATTCATTA", "E-score": -0.0823}
{"Oligonucleotide": "AGAGAGGG", "E-score": -0.0774}
{"Oligonucleotide": "ATAGCACG", "E-score": 0.145}
